Experimental data of several laboratories.
Compare with care: the assays were run in different laboratories. “And” joins repeats or separate records; there may be more than shown.

| Structure (SMILES) | tested on | assay | test system | setting | scale | measurement | value |
| --- | --- | --- | --- | --- | --- | --- | --- |
| CCOc1cncc(-c2ccc(NC(=O)C3(c4ccnc(NS(=O)(=O)C5CC5)n4)CCOCC3)nc2)n1 | MM1.S | cell growth or viability, ATP luminescence |  | 72 h |  | IC50 | 76 nM |
| Nc1ncc(-c2cc(-c3cnn(CC(F)(F)F)c3)ncc2F)nc1C(=O)NC1CNCC(F)C1 (stereo not drawn) | DAPK3 | KINOMEscan |  | 1 µM | baseline: DMSO control | remaining binding | 100% |
| CC(C)c1ccc(N(C)c2ccc3c(c2)OCC[C@H]3CNc2cnccc2C(=O)O)cc1 | SNU878 | cell viability, CellTiter-Glo |  | 7 days |  | IC50 | ≥ 10000 nM |
| CCN(CC)CC(=O)Nc1cccc(-n2cc(-c3ccc4ccc(-c5cn(-c6cccc(NC(=O)CN(CC)CC)c6)nn5)cc4c3)nn2)c1 | RCC4 | PCR angiogenesis array, refers to: GAPDH |  | 5 x IC50, 2 h, normoxia | baseline: untreated | fold regulation | -1.01 fold |
| O=C(C1CCCN(Cc2ccc(Cl)cc2)C1)N1CCCCC1.O=C(O)C(=O)O (stereo not drawn) | Trypanosoma cruzi | reporter mRNA translation, inhibitor, refers to: Renilla luciferase mRNA | cell-free extract | concentration not given, test 1 | baseline: positive over negative control | translation activity | 106% and 91.8% |
| C=CC(=O)Nc1cccc(Cn2ncc3cnc(Nc4cnn(CCOC)c4)nc32)c1 | human QSK | KINOMEscan |  | 100 nM | baseline: control | binding | 100% |
| Cc1ncsc1-c1ccc(C(C)NC(=O)C2CC(O)CN2C(=O)C(NC(=O)CCCCCCCCCCN2CCCC(Nc3ncc(Cl)c(Nc4ccccc4S(=O)(=O)C(C)C)n3)C2)C(C)(C)C)cc1 (stereo not drawn) | 22Rv1 | RNA-seq, refers to: TOE1 mRNA |  | concentration not given | baseline: DMSO | log2 fold change | -1.14 |
| Cn1ncc2cc(-c3cncc(Cl)c3N3CCC4(CCNC4=O)CC3)ccc21 | LS174T | microarray, refers to: IL17C |  | concentration not given, 4 h, gene set IL-17C | baseline: untreated cells | fold change in expression | -2.31 |
| COC1CN([C@H]2CC[C@H]([C@@]3(C)Oc4c(Cl)cc(C(=O)NCc5c(SC)cc(C)[nH]c5=O)c(C)c4O3)CC2)C1 |  | RNA-seq, refers to: PLSCR4 | human, whole blood | dose not given, 24 h | baseline: pretreatment baseline | log2 fold change | 2.08 |
| CNS(=O)(=O)Nc1nccc(Cc2c(C)c3ccc(Oc4ncccc4F)cc3oc2=O)c1F | HEC-251 | cell viability |  | 7 days |  | IC50 | > 1000 nM |
| CO[C@@H]1[C@@H](OC(N)=O)[C@@H](O)[C@H](Oc2ccc3c(O)c(NC(=O)c4ccc(O)c(CC=C(C)C)c4)c(=O)oc3c2C)OC1(C)C | DLD-1 parental |  |  | 300 µM | baseline: untreated | colony survival | 0.12% |
| CN1CCCNC(=O)c2cccc(c2)C(=O)NCCCN(C)CCCNc2cccc3c2C(=O)c2cccc(c2C3=O)NCCC1 | SAS | RNA-Seq, refers to: UBFD1 mRNA |  | 1 µM, 6 h | baseline: untreated cells | log2 fold change | -0.612 |

For quick reference, copied from above:
| Structure (SMILES) | tested on | assay | test system | setting | scale | measurement | value |
| --- | --- | --- | --- | --- | --- | --- | --- |
| C=CC(=O)Nc1cccc(Cn2ncc3cnc(Nc4cnn(CCOC)c4)nc32)c1 | human QSK | KINOMEscan |  | 100 nM | baseline: control | binding | 100% |
| CCN(CC)CC(=O)Nc1cccc(-n2cc(-c3ccc4ccc(-c5cn(-c6cccc(NC(=O)CN(CC)CC)c6)nn5)cc4c3)nn2)c1 | RCC4 | PCR angiogenesis array, refers to: GAPDH |  | 5 x IC50, 2 h, normoxia | baseline: untreated | fold regulation | -1.01 fold |
